# Results of several laboratories.
# Each line is one published result; not all experiments were run side by side. ± marks the error that the study gave.
SMILES,test system,setting,how to read,measurement,value
COc1cc2nccc(Oc3ccc(NC(=O)NC4CC4)c(Cl)c3)c2cc1C(N)=O,"Sprague-Dawley rats male, plasma","oral, dose not given, together with: isavuconazole",reference: without isavuconazole,AUC(0-t) increase,50.2%
C1=C/COCc2cc(ccc2OCCN2CCCC2)Nc2nccc(n2)-c2cccc(c2)COC/1,"rat Sprague-Dawley male, plasma","oral, dose not given, together with: voriconazole",reference: without voriconazole,AUC(0-t) increase,23%
COC[C@@H](CC(C)C)NC(=O)c1ccc(C)c(C)c1,"Sprague-Dawley rats, plasma","oral, 100 mg/kg",reference: female over male,AUC(0-t) ratio,1
CSc1ccccc1C(=O)NCCn1cc(C(=O)NCc2cccc(C)n2)c(=O)c2cc3c(cc21)OC(F)(F)O3,"Sprague-Dawley rat, male, plasma","intramuscular, 30 mg/kg of parent compound",,AUC(0-t),142 ± 40 ng·h/mL
C=CC(=O)N1CCC([C@@H]2CCNc3c(C(N)=O)c(-c4ccc(Oc5ccccc5)cc4)nn32)CC1,Sprague-Dawley rat,"oral, dose not given, together with: posaconazole",reference: alone,AUC(0-t) fold change,0.98 fold
Cc1cccc(CNC(=O)c2cn(CCNC(=O)c3ccccc3S)c3cc4c(cc3c2=O)OC(F)(F)O4)n1,"Sprague-Dawley rat, male, whole blood","intramuscular, 30 mg/kg of parent compound",,AUC(0-t),3950 ± 1520 ng·h/mL
CCCC(CCC)NC(=O)c1ccc2c(c1)OCO2,"Sprague-Dawley rats, plasma","oral, 20 mg/kg",reference: female over male,AUC(0-t) ratio,0.92
O=C1c2ccncc2C(=O)c2c1[nH]c1ccccc21,"Sprague-Dawley rat female, plasma","intravenous, 5 mg/kg",,AUC(0-t),5.31 ± 2.79 µM·h
Cc1cccc(CNC(=O)c2cn(CCNC(=O)c3ccccc3Sc3c([N+](=O)[O-])ncn3C)c3cc4c(cc3c2=O)OC(F)(F)O4)n1,"Sprague-Dawley rat, male, plasma","intramuscular, 30 mg/kg of parent compound",,AUC(0-t),472 ± 222 ng·h/mL
CN1CCC[C@H](CN2c3ccccc3Sc3ccccc32)C1.Cl,"Wistar rat female, eye","oral, 16 mg/kg",,AUC(0-t),10400 ng·h/mL

# A few entries again:
SMILES,test system,setting,how to read,measurement,value
C1=C/COCc2cc(ccc2OCCN2CCCC2)Nc2nccc(n2)-c2cccc(c2)COC/1,"rat Sprague-Dawley male, plasma","oral, dose not given, together with: voriconazole",reference: without voriconazole,AUC(0-t) increase,23%
